Assay results collected from several papers.
Each line is one published result; not all experiments were run side by side. Values joined by “and” are separate records of one study, mostly repeats; a detail may differ.
HLA class I histocompatibility antigen, A alpha chain: HLA class I histocompatibility antigen, A alpha chain (Homo sapiens, UniProt P04439)
4'-phosphopantetheinyl transferase PptT: 4'-phosphopantetheinyl transferase PptT (Mycobacterium tuberculosis, UniProt O33336)
UniProt O33336, sequence (whole entry, looked up): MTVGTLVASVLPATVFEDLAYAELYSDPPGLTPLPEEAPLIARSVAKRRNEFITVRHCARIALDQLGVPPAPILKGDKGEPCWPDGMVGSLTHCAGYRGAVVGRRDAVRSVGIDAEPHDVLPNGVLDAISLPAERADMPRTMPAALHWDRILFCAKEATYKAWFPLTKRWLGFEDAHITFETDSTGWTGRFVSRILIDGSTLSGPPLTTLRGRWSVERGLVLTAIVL
Proteasome component C5/PSMB5 chymotrypsin-like site: Proteasome component C5/PSMB5, chymotrypsin-like site (Homo sapiens, UniProt P20618+P28074)
UniProt P20618, sequence (whole entry, looked up): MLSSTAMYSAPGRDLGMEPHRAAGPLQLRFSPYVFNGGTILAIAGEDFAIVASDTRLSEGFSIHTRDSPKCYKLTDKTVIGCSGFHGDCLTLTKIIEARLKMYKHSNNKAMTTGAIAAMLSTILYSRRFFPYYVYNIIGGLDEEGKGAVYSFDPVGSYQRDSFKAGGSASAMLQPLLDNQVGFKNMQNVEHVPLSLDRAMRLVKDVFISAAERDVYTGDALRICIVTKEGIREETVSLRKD
UniProt P28074, sequence (whole entry, looked up): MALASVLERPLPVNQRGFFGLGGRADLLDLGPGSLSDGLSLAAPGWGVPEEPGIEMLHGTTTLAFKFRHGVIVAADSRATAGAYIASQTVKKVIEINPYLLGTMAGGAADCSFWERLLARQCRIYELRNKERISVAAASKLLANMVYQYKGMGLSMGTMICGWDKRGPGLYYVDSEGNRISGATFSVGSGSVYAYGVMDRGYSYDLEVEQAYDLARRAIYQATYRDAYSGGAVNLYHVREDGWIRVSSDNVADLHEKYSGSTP
NEU1: Sialidase-1 (NEU1, Homo sapiens, UniProt Q99519)
CASP3: Caspase-3 (CASP3, Homo sapiens, UniProt P42574)
UniProt P42574, sequence (whole entry, looked up): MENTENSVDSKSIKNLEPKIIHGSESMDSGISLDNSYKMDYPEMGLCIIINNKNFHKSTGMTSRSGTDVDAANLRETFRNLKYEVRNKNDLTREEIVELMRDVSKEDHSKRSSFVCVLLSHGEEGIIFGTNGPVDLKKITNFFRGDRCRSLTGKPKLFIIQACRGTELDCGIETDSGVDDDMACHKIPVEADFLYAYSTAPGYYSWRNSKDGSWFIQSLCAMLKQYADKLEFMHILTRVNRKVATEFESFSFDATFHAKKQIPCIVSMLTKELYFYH
DPP4: Dipeptidyl peptidase 4 (DPP4, Homo sapiens, UniProt P27487)
UniProt C7C422, sequence (whole entry, looked up): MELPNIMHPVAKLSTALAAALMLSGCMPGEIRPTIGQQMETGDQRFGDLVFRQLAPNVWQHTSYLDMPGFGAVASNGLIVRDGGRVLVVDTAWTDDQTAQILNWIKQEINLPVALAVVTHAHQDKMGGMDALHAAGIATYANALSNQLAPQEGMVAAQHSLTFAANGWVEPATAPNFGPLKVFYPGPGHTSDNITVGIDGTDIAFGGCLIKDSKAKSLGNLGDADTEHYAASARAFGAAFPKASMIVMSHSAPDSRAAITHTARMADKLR
UniProt P27487, sequence (whole entry, looked up): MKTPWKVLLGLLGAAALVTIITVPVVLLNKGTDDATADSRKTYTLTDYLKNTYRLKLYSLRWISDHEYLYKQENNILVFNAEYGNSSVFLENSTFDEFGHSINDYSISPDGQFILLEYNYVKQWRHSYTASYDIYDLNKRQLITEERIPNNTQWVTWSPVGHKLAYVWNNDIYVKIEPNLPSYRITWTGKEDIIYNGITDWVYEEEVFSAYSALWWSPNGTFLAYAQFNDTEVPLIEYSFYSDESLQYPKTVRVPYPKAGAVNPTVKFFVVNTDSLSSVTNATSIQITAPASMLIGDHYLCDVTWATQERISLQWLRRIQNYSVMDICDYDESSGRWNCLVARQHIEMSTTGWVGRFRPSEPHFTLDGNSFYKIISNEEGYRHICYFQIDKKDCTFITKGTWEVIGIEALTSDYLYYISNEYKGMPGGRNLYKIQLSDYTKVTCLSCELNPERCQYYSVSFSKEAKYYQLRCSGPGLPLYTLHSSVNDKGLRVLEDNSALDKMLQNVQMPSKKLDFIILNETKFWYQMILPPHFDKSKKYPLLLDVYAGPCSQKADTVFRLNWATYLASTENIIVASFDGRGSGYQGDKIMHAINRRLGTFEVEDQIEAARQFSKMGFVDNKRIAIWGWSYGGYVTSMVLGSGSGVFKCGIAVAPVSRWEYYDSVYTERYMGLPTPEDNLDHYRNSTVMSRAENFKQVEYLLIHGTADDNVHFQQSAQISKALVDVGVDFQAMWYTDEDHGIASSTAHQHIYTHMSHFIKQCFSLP
UniProt O60911, sequence (whole entry, looked up): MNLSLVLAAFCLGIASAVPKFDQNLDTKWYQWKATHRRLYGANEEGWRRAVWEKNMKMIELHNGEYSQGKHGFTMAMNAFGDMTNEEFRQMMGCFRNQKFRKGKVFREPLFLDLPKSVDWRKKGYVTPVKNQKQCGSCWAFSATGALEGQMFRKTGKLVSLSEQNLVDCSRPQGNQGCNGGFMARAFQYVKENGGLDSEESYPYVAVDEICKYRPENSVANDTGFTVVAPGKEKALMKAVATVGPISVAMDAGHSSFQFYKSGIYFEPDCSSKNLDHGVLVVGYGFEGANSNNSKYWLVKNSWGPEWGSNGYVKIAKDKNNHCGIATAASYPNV
UniProt Q96GD4, sequence (whole entry, looked up): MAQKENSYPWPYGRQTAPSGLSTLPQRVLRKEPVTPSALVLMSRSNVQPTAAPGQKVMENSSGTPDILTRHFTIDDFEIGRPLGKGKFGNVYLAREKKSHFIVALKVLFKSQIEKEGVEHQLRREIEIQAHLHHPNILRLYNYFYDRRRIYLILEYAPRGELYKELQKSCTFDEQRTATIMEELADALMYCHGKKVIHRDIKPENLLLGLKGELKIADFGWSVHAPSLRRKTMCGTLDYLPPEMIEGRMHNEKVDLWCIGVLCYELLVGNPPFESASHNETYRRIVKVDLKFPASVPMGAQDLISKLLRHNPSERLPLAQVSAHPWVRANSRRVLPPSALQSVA
UniProt P52895, sequence (whole entry, looked up): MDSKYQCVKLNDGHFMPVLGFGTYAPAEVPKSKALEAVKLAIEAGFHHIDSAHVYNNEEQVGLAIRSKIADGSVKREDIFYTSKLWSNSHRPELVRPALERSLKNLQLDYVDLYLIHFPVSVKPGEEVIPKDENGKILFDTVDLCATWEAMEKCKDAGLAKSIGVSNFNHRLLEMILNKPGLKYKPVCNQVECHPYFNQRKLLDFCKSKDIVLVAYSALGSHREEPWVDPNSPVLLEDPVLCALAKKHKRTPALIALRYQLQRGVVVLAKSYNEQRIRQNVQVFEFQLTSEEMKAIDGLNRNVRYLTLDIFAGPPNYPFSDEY
UniProt P23458, sequence (whole entry, looked up): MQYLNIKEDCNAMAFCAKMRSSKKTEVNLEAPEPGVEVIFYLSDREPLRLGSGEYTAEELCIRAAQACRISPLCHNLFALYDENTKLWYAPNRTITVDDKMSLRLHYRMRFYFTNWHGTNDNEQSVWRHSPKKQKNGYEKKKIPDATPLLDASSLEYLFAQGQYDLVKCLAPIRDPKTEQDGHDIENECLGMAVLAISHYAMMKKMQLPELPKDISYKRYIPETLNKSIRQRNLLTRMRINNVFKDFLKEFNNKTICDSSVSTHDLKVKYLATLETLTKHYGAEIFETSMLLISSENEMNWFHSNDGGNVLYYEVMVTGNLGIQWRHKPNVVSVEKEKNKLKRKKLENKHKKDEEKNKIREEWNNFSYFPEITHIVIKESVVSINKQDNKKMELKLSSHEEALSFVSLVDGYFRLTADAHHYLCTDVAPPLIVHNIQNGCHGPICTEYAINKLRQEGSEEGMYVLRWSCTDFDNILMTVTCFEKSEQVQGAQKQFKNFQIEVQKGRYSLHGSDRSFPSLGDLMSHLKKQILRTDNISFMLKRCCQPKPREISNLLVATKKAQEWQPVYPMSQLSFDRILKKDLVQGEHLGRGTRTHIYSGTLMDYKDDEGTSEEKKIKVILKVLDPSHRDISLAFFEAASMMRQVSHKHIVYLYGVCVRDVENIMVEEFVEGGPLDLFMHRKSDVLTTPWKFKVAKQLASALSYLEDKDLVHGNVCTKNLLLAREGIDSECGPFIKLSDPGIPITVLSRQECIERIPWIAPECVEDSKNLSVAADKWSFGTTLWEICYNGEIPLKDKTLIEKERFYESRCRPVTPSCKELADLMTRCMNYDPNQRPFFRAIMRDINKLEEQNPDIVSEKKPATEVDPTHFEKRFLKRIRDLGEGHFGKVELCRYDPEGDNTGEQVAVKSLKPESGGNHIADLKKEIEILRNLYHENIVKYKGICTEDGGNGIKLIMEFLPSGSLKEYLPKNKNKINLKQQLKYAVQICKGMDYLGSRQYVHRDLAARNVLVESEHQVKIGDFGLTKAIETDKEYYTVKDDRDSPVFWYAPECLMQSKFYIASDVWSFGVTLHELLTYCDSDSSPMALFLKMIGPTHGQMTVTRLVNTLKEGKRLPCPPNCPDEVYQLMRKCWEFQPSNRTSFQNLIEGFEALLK
UniProt P07550, sequence (whole entry, looked up): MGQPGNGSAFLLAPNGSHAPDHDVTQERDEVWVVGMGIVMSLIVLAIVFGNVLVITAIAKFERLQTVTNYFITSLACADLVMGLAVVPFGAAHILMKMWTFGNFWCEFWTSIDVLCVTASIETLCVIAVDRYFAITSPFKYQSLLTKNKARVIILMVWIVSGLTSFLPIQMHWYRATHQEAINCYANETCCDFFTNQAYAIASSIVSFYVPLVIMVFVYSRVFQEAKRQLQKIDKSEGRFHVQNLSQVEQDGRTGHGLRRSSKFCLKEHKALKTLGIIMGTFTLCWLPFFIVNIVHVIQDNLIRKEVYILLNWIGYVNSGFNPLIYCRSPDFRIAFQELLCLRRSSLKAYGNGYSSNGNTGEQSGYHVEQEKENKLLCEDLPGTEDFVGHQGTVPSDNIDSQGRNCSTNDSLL

O=C(O)c1cc[c]([Hg][Cl])cc1 — IC50 (blaNDM-1 (Klebsiella pneumoniae, UniProt C7C422); enzyme activity, inhibitor): 2300 nM and 2000 nM
O=C(O)C(F)(F)C(F)(F)C(F)(F)C(F)(F)C(F)(F)C(F)(F)C(F)(F)F — IC50 (AKR1C2 (Homo sapiens, UniProt P52895); enzyme activity, inhibitor, fluorescence): 206 nM
CSCC[C@H](NC(=O)[C@H](CO)NC(=O)[C@H](Cc1c[nH]c2ccccc12)NC(=O)[C@@H]1CCCN1C(=O)[C@H](CCCCN)NC(=O)[C@H](CCC(N)=O)NC(=O)[C@H](Cc1ccccc1)NC(=O)[C@H](CCSC)NC(=O)[C@@H](N)CCCNC(=N)N)C(=O)O — IC50 (HLA class I histocompatibility antigen, A alpha chain; cell-free assay): 1460 nM
O=c1[nH]c2cc(CO)c(Cl)cc2c(=O)n1Cc1cccnc1 — IC50 (4'-phosphopantetheinyl transferase PptT; enzyme activity, inhibitor, FP): 32900 nM
CSCC[C@H](NC(=O)[C@@H](N)Cc1ccc(O)cc1)C(=O)N[C@@H](CC(=O)O)C(=O)N1CCC[C@H]1C(=O)N[C@H](C(=O)N1CCC[C@H]1C(=O)N[C@@H](CC(C)C)C(=O)N[C@@H](CCC(N)=O)C(=O)N[C@@H](Cc1ccccc1)C(=O)O)C(C)C — IC50 (HLA class I histocompatibility antigen, A alpha chain; cell-free assay): 22300 nM
CCCCCCCCCC(=O)N[C@@H](C)C(=O)N[C@@H](Cc1ccc(OC)cc1)C(=O)N[C@@H](CC(C)C)C(=O)C(=O)Nc1ccccc1 — IC50 (Proteasome component C5/PSMB5 chymotrypsin-like site; enzyme activity in cells, inhibitor): 229 nM
CSCC[C@H](NC(=O)[C@@H](N)Cc1c[nH]cn1)C(=O)N[C@@H](Cc1ccc(O)cc1)C(=O)N1CCC[C@H]1C(=O)N[C@@H](CC(N)=O)C(=O)N[C@@H](Cc1ccccc1)C(=O)N[C@H](C(=O)N[C@@H](CCC(N)=O)C(=O)N[C@@H](Cc1ccccc1)C(=O)O)C(C)C — IC50 (HLA class I histocompatibility antigen, A alpha chain; cell-free assay): 709 nM
COc1ncccc1-c1cnn2ccc(N3CCN(C(=O)OC(C)C)CC3)nc12 — remaining binding (ACVR2A (Homo sapiens, UniProt P27037); binding, competition with immobilised ligand; 1 µM): 87%
CCC(C(=O)Nc1cc(NC2CCOCC2)ccc1C)n1cc(Br)cc2nc(SCc3ccc(F)cc3)nc1-2 (stereo not drawn) — IC50 (Prothrombin (F2, Homo sapiens, UniProt P00734); enzyme activity, inhibitor): > 100000 nM
CN(C(=O)CC(C)(C)C)[C@H]1[C@H]([C@H](O)[C@H](O)CO)OC(C(=O)O)=C[C@@H]1O — IC50 (NEU1; enzyme activity, inhibitor): 290000 nM
O=C(N1CCC2(CC1)C[C@@H](CN1CCCCS1(=O)=O)CCO2)C1(c2ccccc2)CCCC1 — IC50 (ATP-dependent RNA helicase DDX1 (Homo sapiens, UniProt Q92499); ATPase activity, inhibitor): > 50000 nM
CCC(C(=O)Nc1cc(NC2CCNCC2)ccc1C)n1cc(Cl)cc2nc(SCc3ccc(F)cc3)nc1-2 (stereo not drawn) — IC50 (Cathepsin B (CTSB, Homo sapiens, UniProt P07858); enzyme activity, inhibitor): > 100000 nM
[2H]c1c([2H])c([C@]2([2H])CCCN2C(=O)C(C)(C)Oc2ccc3cn[nH]c3c2)c([2H])c([2H])c1C([2H])([2H])[2H] — remaining binding (Aurora kinase B (AURKB, Homo sapiens, UniProt Q96GD4); binding, competition with immobilised ligand; 1 µM): 82%
Cc1nn(C)cc1-c1nc2c(N3CCN(Cc4ccc(Cl)cc4)CC3)c(Cl)cnc2[nH]1 — remaining binding (Tyrosine-protein kinase JAK1, JH2 (JAK1, Homo sapiens, UniProt P23458); binding, competition with immobilised ligand; 1 µM): 100%
CC(=O)c1ccc(-c2ccc(C(=O)N[C@@H](CC(C)C)C(=O)N[C@@H](CC(C)C)C(=O)N[C@@H](CC(C)C)C(=O)C(=O)Nc3cccc(C(C)=O)c3)o2)cc1 — IC50 (Proteasome component C5/PSMB5 chymotrypsin-like site; enzyme activity in cells, inhibitor): 24.5 nM
CC[C@H](C)[C@H](NC(=O)[C@@H](N)CCSC)C(=O)N[C@@H](Cc1ccccc1)C(=O)N[C@@H](CC(=O)O)C(=O)N[C@@H](CCCCN)C(=O)N1CCC[C@H]1C(=O)N[C@H](C(=O)N[C@@H](Cc1ccc(O)cc1)C(=O)N[C@@H](Cc1ccccc1)C(=O)O)C(C)C — IC50 (HLA class I histocompatibility antigen, A alpha chain; cell-free assay): 873 nM
Cn1nccc1[C@]1(CNC(=O)c2ccc(F)c(F)c2-c2ccc(C(F)(F)F)cc2)NC(=O)NC1=O — IC50 (CASP3; enzyme activity, inhibitor): > 100000 nM
CC[C@H](C)[C@H](NC(=O)[C@H](Cc1c[nH]cn1)NC(=O)[C@@H]1CCCN1C(=O)[C@H](Cc1ccccc1)NC(=O)[C@H](CC(C)C)NC(=O)[C@H](C)N)C(=O)N[C@@H](CCSC)C(=O)N[C@H](C(=O)N[C@@H](Cc1ccc(O)cc1)C(=O)O)[C@@H](C)O — IC50 (HLA class I histocompatibility antigen, A alpha chain; cell-free assay): 105 nM
CC(C)C[C@H](NC(=O)OCc1ccccc1)C(=O)N[C@@H](Cc1ccccc1)C(=O)N[C@@H](CC(C)C)C(=O)C(=O)Nc1ccccc1 — IC50 (Proteasome component C5/PSMB5 chymotrypsin-like site; enzyme activity in cells, inhibitor): 234 nM
CC(=O)OCc1cc2[nH]c(=O)n(Cc3cccnc3)c(=O)c2cc1Cl — IC50 (4'-phosphopantetheinyl transferase PptT; enzyme activity, inhibitor, FP): > 100000 nM
CN(C)C(=O)COC(=O)Cc1ccc(OC(=O)c2ccc(NC(=N)N)cc2)cc1 — IC50 (Serine protease 1 (PRSS1, Homo sapiens, UniProt P07477); enzyme activity, inhibitor): 71.9 nM
CCCCNC(=O)N[C@H]1[C@H]([C@H](O)[C@H](O)CO)OC(C(=O)O)=C[C@@H]1O — IC50 (NEU1; enzyme activity, inhibitor): 50000 nM
CSCC[C@H](NC(=O)[C@@H](N)CCCNC(=N)N)C(=O)N[C@@H](Cc1ccc(O)cc1)C(=O)N[C@@H](CC(=O)O)C(=O)N[C@@H](CCCNC(=N)N)C(=O)N[C@@H](Cc1c[nH]cn1)C(=O)N[C@@H](Cc1ccc(O)cc1)C(=O)N[C@@H](CC(C)C)C(=O)N[C@@H](Cc1ccccc1)C(=O)O — IC50 (HLA class I histocompatibility antigen, A alpha chain; cell-free assay): 60 nM
CCC(C(=O)Nc1cc(NC2COC2)ccc1C)n1cc(Br)cc2nc(SCc3ccc(F)cc3)nc1-2 (stereo not drawn) — IC50 (CASP3; enzyme activity, inhibitor): > 100000 nM
CCN[C@H]1[C@H]([C@H](O)[C@H](O)CO)OC(C(=O)O)=C[C@@H]1O — IC50 (NEU1; enzyme activity, inhibitor): 91000 nM
CC(C)C[C@H](NC(=O)[C@H](Cc1ccccc1)NC(=O)[C@H](C)NC(=O)OCc1ccccc1)C(=O)C(=O)Nc1ccccc1 — IC50 (Proteasome component C5/PSMB5 chymotrypsin-like site; enzyme activity in cells, inhibitor): 1950 nM
CCC(C(=O)Nc1cc(NC2CNC2)ccc1C)n1cccc2nc(SCc3ccc(F)cc3)nc1-2 (stereo not drawn) — IC50 (USP28 (Homo sapiens, UniProt Q96RU2); enzyme activity, inhibitor): > 100000 nM
Nc1ncc(-c2nc(N3CCOCC3)nc(N3CCOCC3)n2)c(C(F)F)n1 — remaining binding (CDPK1 (Plasmodium falciparum, UniProt P62344); binding, competition with immobilised ligand; 10 µM): 57%
CCC(C(=O)Nc1cc(NC2CCNC2)ccc1C)n1cc(Br)cc2nc(SCc3ccc(F)cc3)nc1-2 (stereo not drawn) — IC50 (CASP3; enzyme activity, inhibitor): > 100000 nM
CC(C)[C@H](N)C(=O)N1CCC[C@H]1C(=O)N[C@H](C(=O)N1CCC[C@H]1C(=O)N[C@@H](Cc1ccccc1)C(=O)O)C(C)C — IC50 (DPP4; enzyme activity, inhibitor, absorbance; pH 8): 81900 nM
CSCC[C@H](NC(=O)[C@H](Cc1ccc(O)cc1)NC(=O)[C@@H](NC(=O)[C@@H]1CCCN1C(=O)[C@H](Cc1ccc(O)cc1)NC(=O)[C@H](CCC(N)=O)NC(=O)[C@@H](N)Cc1c[nH]cn1)C(C)C)C(=O)N[C@@H](CCC(N)=O)C(=O)N[C@@H](Cc1ccc(O)cc1)C(=O)O — IC50 (HLA class I histocompatibility antigen, A alpha chain; cell-free assay): 147 nM
CC(C)C[C@H](NC(=O)[C@H]1O[C@@H]1C(=O)O)C(=O)NCCCCN=C(N)N — IC50 (Cathepsin L2 (CTSV, Homo sapiens, UniProt O60911); enzyme activity, inhibitor): 3.3 nM
CCCCCC(=O)N[C@H]1[C@H]([C@H](O)[C@H](O)CO)OC(C(=O)O)=C[C@@H]1O — IC50 (NEU1; enzyme activity, inhibitor): 900 nM
CSCC[C@H](NC(=O)[C@@H](N)CCCNC(=N)N)C(=O)N[C@@H](Cc1ccc(O)cc1)C(=O)N[C@@H](CC(N)=O)C(=O)N1CCC[C@H]1C(=O)N[C@H](C(=O)N[C@@H](CC(C)C)C(=O)N[C@@H](CCCNC(=N)N)C(=O)N[C@@H](Cc1ccccc1)C(=O)O)C(C)C — IC50 (HLA class I histocompatibility antigen, A alpha chain; cell-free assay): 104 nM
CC(C)[C@H](N)C(=O)N1CCC[C@H]1C(=O)N[C@H](C(=O)N1CCC[C@H]1C(=O)N[C@@H](C)C(=O)O)C(C)C — IC50 (DPP4; enzyme activity, inhibitor, absorbance; pH 8): 98100 nM
CCC1(COCc2ccccc2F)CCC(C)(C)O1 (stereo not drawn) — IC50 (ADRB2 (Homo sapiens, UniProt P07550); calcium signal, antagonist, fluorescence): 13000 nM

For quick reference, copied from above:
CC[C@H](C)[C@H](NC(=O)[C@@H](N)CCSC)C(=O)N[C@@H](Cc1ccccc1)C(=O)N[C@@H](CC(=O)O)C(=O)N[C@@H](CCCCN)C(=O)N1CCC[C@H]1C(=O)N[C@H](C(=O)N[C@@H](Cc1ccc(O)cc1)C(=O)N[C@@H](Cc1ccccc1)C(=O)O)C(C)C — IC50 (HLA class I histocompatibility antigen, A alpha chain; cell-free assay): 873 nM
Cn1nccc1[C@]1(CNC(=O)c2ccc(F)c(F)c2-c2ccc(C(F)(F)F)cc2)NC(=O)NC1=O — IC50 (CASP3; enzyme activity, inhibitor): > 100000 nM
CC[C@H](C)[C@H](NC(=O)[C@H](Cc1c[nH]cn1)NC(=O)[C@@H]1CCCN1C(=O)[C@H](Cc1ccccc1)NC(=O)[C@H](CC(C)C)NC(=O)[C@H](C)N)C(=O)N[C@@H](CCSC)C(=O)N[C@H](C(=O)N[C@@H](Cc1ccc(O)cc1)C(=O)O)[C@@H](C)O — IC50 (HLA class I histocompatibility antigen, A alpha chain; cell-free assay): 105 nM
CC(C)C[C@H](NC(=O)OCc1ccccc1)C(=O)N[C@@H](Cc1ccccc1)C(=O)N[C@@H](CC(C)C)C(=O)C(=O)Nc1ccccc1 — IC50 (Proteasome component C5/PSMB5 chymotrypsin-like site; enzyme activity in cells, inhibitor): 234 nM
CC(=O)OCc1cc2[nH]c(=O)n(Cc3cccnc3)c(=O)c2cc1Cl — IC50 (4'-phosphopantetheinyl transferase PptT; enzyme activity, inhibitor, FP): > 100000 nM
